Measurements of several laboratories.
Parts stem from different laboratories: compare values within a part only.

Series 1
Target: Centromere-binding protein 1, full length, His-tagged (CBF1, Saccharomyces cerevisiae, UniProt P17106, residues 1-351)
UniProt P17106, sequence (whole entry, looked up): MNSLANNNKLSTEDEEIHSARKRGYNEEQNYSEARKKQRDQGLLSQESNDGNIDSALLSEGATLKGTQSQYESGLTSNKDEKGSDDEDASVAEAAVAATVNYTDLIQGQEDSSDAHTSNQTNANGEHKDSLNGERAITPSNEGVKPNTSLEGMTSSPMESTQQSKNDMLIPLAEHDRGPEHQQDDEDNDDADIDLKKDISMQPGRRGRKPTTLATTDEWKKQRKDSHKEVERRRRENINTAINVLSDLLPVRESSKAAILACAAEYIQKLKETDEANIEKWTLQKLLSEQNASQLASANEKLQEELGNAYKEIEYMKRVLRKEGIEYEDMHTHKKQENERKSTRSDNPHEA
Method: competition protein-binding microarray
Form: double-stranded DNA, one strand shown
Sample: in vitro
Tested at: 2 µM
Notes: whole 60-bp probe, lowest competitor level
Together with: Pho4 competitor, 0.05 µM
Direction: higher = stronger binding
Measurement: fluorescence intensity
CGTCCTAGTGATTTTCACGTGTGTTCCATGAGGAAGGTCTTGATTCGCTTGACGCTGCTG: 570 a.u.
CGTCCTAGTGATTGCCGTGTGGGTGCCATGAGGAAGGTCTTGATTCGCTTGACGCTGCTG: 78.3 a.u.
CGCTTAACATATTCCCATGTGGTTTATTTTCGTATAGTCTTGATTCGCTTGACGCTGCTG: 123 a.u.
TTGTTCCTCTGAAAGCACGGGCCGGCGCACTCCAATGTCTTGATTCGCTTGACGCTGCTG: 71.8 a.u.

Series 2
Target: Interferon regulatory factor 7, full length, phosphomimetic (IRF7, Homo sapiens, UniProt Q92985, residues 1-503, S101K/S471D/S472D/S475D/S476D/S477D/S483D/S484D/S487D)
UniProt Q92985, sequence (whole entry, unmodified, looked up): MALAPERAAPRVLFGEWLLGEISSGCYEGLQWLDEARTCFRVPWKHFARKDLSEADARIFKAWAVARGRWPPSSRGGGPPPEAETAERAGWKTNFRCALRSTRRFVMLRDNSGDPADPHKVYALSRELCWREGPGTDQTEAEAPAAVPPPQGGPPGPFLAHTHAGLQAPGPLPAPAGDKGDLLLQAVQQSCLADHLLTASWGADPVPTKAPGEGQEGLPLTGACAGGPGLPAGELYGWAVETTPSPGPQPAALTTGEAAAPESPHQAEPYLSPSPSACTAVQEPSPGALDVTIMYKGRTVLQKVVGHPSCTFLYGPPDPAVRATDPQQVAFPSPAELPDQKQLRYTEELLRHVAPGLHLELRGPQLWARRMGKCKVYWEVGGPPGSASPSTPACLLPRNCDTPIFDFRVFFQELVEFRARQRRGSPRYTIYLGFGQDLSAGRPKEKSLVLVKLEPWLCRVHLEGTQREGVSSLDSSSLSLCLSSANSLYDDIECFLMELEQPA
Method: protein-binding microarray
Form: double-stranded DNA, one strand shown
Sample: in vitro
Tested at: 250 nM
Notes: 60-bp whole probe
Together with: salmon DNA 0.4 mg/ml
Baseline: random background probes
Direction: higher = stronger binding
Measurement: log fluorescence
GCCTAGCACTTAGGACTGGGTTTCGCTTAGTGCTAGGTCTTGATTCGCTTGACGCTGCTG: 4.58 z-score
GCCTAGCACGACAAACTGAGTCTCGAGACGTGCTAGGTCTTGATTCGCTTGACGCTGCTG: 0.651 z-score
GCCTAGCACACAGGAGTGTTTCTCAGTTTGTGCTAGGTCTTGATTCGCTTGACGCTGCTG: 0.00537 z-score
GCCTAGCACTCACTCTTCTTTTGCTAACTGTGCTAGGTCTTGATTCGCTTGACGCTGCTG: 0.83 z-score

Series 3
Target: Sal-like protein 4, full length isoform B (SALL4, Homo sapiens, UniProt Q9UJQ4-2, residues 1-616)
Method: universal PBM
Form: double-stranded DNA, one strand shown
Sample: in vitro
Tested at: not given
Notes: 8-mer, flanks averaged, mean of replicates
Direction: higher = stronger binding
Measurement: E-score
Residues (chain): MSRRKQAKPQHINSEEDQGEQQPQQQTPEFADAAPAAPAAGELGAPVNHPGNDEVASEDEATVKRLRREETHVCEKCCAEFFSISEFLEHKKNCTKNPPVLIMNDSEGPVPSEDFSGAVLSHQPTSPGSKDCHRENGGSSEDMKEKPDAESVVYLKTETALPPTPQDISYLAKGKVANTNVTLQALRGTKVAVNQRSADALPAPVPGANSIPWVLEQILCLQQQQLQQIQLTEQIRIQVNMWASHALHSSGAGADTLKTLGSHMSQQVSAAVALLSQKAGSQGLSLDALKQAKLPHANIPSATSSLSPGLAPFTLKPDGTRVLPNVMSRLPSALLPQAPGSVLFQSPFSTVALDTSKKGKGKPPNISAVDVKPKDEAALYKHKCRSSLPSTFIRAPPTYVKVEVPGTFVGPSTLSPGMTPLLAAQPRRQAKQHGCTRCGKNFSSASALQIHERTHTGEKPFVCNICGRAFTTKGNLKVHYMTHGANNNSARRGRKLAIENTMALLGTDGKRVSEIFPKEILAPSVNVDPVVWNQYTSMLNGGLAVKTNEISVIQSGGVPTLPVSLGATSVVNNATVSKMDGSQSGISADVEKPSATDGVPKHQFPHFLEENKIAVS
AAATCAGA: 0.0832
CCCAGTTA: -0.117
AAGGACAA: 0.0523
CAAGGGTC: -0.2

Other studies, line by line
PhoQ, residues 284 288 289 292 302 303 SNSSNI — fold induction (PhoP, residues 12 14 15 18 19 FWNTL (Escherichia coli, UniProt P23836); Sort-seq, item: YFP reporter; E. coli; PhoQ-PhoP variant library, together with: 10 µM Mg2+; baseline: high Mg2+ state, higher = stronger signaling): 1.04
